Assay results collected from several papers.
Protocols differ between the studies behind these lines.
Effect on: cell growth or viability

SMILES | cell line | method | tested at | time | viability [%]
Cc1ccc(S(=O)(=O)[N](Nc2ccc([N+](=O)[O-])cc2[N+](=O)[O-])[Sn]([Cl])[Cl])cc1 | HEK293 | MTT | 15.625 µg/mL | – | 89
O=C1c2ccccc2C(c2ccccc2F)C(=O)N1O (stereo not shown) | HFF | MTS | 10 µM | 7 days | 87
COc1cccc(NC(=O)Nc2ccc(Oc3nc4ccccc4n4cnnc34)cc2)c1 | WISH | MTT | 3.125 µM | 24 h | 100
COc1ccc(NC(=O)Nc2ccc(-c3cn(Cc4ccc(Cl)cc4)nn3)cc2)cc1 | L02 | CCK-8 | 50 µM | 72 h | 106
CC(C)n1ncc2c(C(=O)NCC3(C)CNC3)cc(C3CC3)nc21 | HeLa | neutral red | 27.8 µM | – | 98.9
Cc1sc2[nH]c(=O)n(O)c(=O)c2c1C | HFF | MTS | 10 µM | 7 days | 77
CN1CCN(c2cnc3c(cc(C(=O)NCc4ccc(Cl)cc4)c(=O)n3CC(=O)N3CC(C)(F)C3)n2)C1=O | MRC5 | CCK-8 | 40 µM | – | 90
COc1cc(/C=C/C(=O)C(=Cc2ccc(O)cc2)C(=O)/C=C/c2ccc(O)c(OC)c2)ccc1O | WRL68 | MTT | 6.2 µg/mL | 48 h | 81.9
O=c1[nH]c2cc(-c3ccc(Cl)cc3)ccc2c(=O)n1O | HFF | MTS | 10 µM | 7 days | 87
CNC(=O)c1cc(Oc2ccc(NC(=O)Nc3ccc(Cl)c(C(F)(F)F)c3)cc2)ccn1 | WISH | MTT | 6.25 µM | 24 h | 65.1
O=c1[nH]c2sc(-c3ccccc3)cc2c(=O)n1O | HFF | MTS | 10 µM | 7 days | 91
COc1ccc(NC(=O)Nc2cccc(-c3cn(Cc4ccc(Br)cc4)nn3)c2)cc1 | L02 | CCK-8 | 50 µM | 72 h | 121
Nc1ccn([C@@H]2O[C@H](CO)[C@@H](O)C2(F)F)c(=O)n1 | MDA-MB-231 | MTT | 0.15625 µg/mL | 48 h | 87.7
O=S(=O)(NNc1nnc(Cl)c2ccccc12)c1ccc(F)cc1 | Vero | MTT | 1000 µg/mL | – | 2.36
COc1cccc2c1C(=O)c1c(O)c3c(c(O)c1C2=O)C[C@@](O)(C(=O)CO)C[C@@H]3O[C@H]1C[C@H](N)[C@H](O)[C@H](C)O1 | SW480 | MTT | 100 µg/mL | – | 9.97
COc1cc(/C=C/C(=O)/C=C/c2ccc(O)c(OC)c2)ccc1O | WRL68 | MTT | 0.8 µg/mL | 48 h | 84

For quick reference, copied from above:
SMILES | cell line | method | tested at | time | viability [%]
COc1cc(/C=C/C(=O)C(=Cc2ccc(O)cc2)C(=O)/C=C/c2ccc(O)c(OC)c2)ccc1O | WRL68 | MTT | 6.2 µg/mL | 48 h | 81.9
O=c1[nH]c2cc(-c3ccc(Cl)cc3)ccc2c(=O)n1O | HFF | MTS | 10 µM | 7 days | 87
